Values quoted from earlier work as cited in several papers.
Protocols differ between the studies behind these lines. ≈ marks a conversion by molar mass, not a printed value.
Chain of UniProt Q8NFD2 (whole entry, looked up): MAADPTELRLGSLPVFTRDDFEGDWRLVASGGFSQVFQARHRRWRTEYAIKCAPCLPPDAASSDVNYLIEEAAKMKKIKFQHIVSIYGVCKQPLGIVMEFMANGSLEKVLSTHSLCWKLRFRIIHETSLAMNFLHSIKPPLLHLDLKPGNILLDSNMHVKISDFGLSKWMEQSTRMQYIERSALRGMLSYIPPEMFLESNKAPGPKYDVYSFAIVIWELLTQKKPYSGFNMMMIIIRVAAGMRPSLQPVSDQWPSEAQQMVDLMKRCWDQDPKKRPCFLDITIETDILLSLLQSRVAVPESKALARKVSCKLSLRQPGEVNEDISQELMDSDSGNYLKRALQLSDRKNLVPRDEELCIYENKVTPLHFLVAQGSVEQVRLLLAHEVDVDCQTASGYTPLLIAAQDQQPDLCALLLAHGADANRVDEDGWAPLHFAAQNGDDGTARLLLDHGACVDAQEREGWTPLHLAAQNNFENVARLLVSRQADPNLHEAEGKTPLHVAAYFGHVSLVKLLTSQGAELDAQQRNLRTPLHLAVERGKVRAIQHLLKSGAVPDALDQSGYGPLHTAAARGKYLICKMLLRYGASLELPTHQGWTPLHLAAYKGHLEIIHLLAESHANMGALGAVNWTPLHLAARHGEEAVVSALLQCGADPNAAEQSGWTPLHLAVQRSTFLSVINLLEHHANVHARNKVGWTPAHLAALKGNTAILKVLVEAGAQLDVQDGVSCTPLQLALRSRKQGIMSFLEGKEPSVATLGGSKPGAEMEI

Structure (SMILES)	target or system	assay	test system	setting	how to read	endpoint	value
Oc1ccc(-c2nc(-c3ccc(OC4CCCC4)cc3)no2)cc1	Acinetobacter baumannii	–	ATCC 17961	–	–	MIC	> 128 µg/mL
CC(C)(O/N=C(\C(=O)N[C@@H]1C(=O)N2C(C(=O)[O-])=C(C[n+]3ccccc3)CS[C@H]12)c1csc(N)n1)C(=O)O	Acinetobacter baumannii	–	clinical isolate RKI-No_584/16	–	–	MIC	4 µg/mL (≈ 7.32 µM)
FC(F)(F)c1ccc(Oc2ccc(-c3noc(-c4ccc5[nH]ccc5c4)n3)cc2)cc1	Acinetobacter baumannii	–	ATCC 17961	–	–	MIC	> 128 µg/mL
CNC(C)C1CCC(N)C(OC2C(N)CC(N)C(OC3OCC(C)(O)C(NC)C3O)C2O)O1 (stereo not shown)	Acinetobacter baumannii	–	clinical isolate RKI-No_70/16	–	–	MIC	> 8 µg/mL
Nc1cc(C(F)(F)F)c(-c2nc(N3CCOCC3)nc(N3CCOCC3)n2)cn1	ANKK1 (Homo sapiens, UniProt Q8NFD2)	enzyme activity	–	10 µM	relative to: untreated	remaining activity	79%
CC1(C)S[C@@H]2[C@H](NC(=O)[C@H](N)c3ccccc3)C(=O)N2[C@H]1C(=O)O	Acinetobacter baumannii	–	clinical isolate RKI-No_596/16	–	–	MIC	> 16 µg/mL
O=[N+]([O-])c1ccc(O)c2ncccc12	Acinetobacter baumannii	biofilm eradication	1794	–	–	MBEC	46.9 µM
CCc1c(Cl)c(O)c(Cl)c(O)c1C(=O)O[C@H]1[C@H](O)[C@H](OC)[C@H](OC/C2=C\C=C\C[C@H](O)/C(C)=C/[C@H](CC)[C@@H](O[C@@H]3OC(C)(C)[C@@H](OC(=O)C(C)C)[C@H](O)[C@@H]3O)/C(C)=C/C(C)=C/C[C@@H]([C@@H](C)O)OC2=O)O[C@@H]1C	Acinetobacter baumannii	–	ATCC 17961	–	–	MIC	> 128 µg/mL
CC[C@H](C)CCCCC(=O)N[C@@H](CCN)C(=O)N[C@H](C(=O)N[C@@H](CCN)C(=O)N[C@H]1CCNC(=O)[C@H]([C@@H](C)O)NC(=O)[C@H](CCN)NC(=O)[C@H](CCN)NC(=O)[C@H](CC(C)C)NC(=O)[C@@H](Cc2ccccc2)NC(=O)[C@H](CCN)NC1=O)[C@@H](C)O	Acinetobacter baumannii	–	–	usual clinical range	–	MIC	0.25 to 1 µg/mL (≈ 0.208 to 0.831 µM)
CC[C@H](C)[C@H](NC(=O)CN)C(=O)NCC(=O)N[C@@H](CCCCN)C(=O)N[C@@H](Cc1ccccc1)C(=O)N[C@@H](CC(C)C)C(=O)N[C@@H](CCCCN)C(=O)N[C@@H](CCCCN)C(=O)N[C@@H](C)C(=O)N[C@@H](CCCCN)C(=O)N[C@@H](CCCCN)C(=O)N[C@@H](Cc1ccccc1)C(=O)NCC(=O)N[C@@H](CCCCN)C(=O)N[C@@H](C)C(=O)N[C@@H](Cc1ccccc1)C(=O)N[C@H](C(=O)N[C@@H](CCCCN)C(=O)N[C@H](C(=O)N[C@@H](CC(C)C)C(=O)N[C@@H](CCCCN)C(=O)N[C@@H](CCCCN)C(N)=O)[C@@H](C)CC)C(C)C	Acinetobacter baumannii	–	–	–	–	MIC	2 µg/mL (≈ 0.807 µM)

Repeated from above:
Structure (SMILES)	target or system	assay	test system	setting	how to read	endpoint	value
CC1(C)S[C@@H]2[C@H](NC(=O)[C@H](N)c3ccccc3)C(=O)N2[C@H]1C(=O)O	Acinetobacter baumannii	–	clinical isolate RKI-No_596/16	–	–	MIC	> 16 µg/mL
